Values quoted from earlier work, collected from citations in different studies.
Each line is one published result; not all experiments were run side by side. “And” joins repeats or separate records; there may be more than shown. ± marks the error that the study gave.

Cc1sc(-c2ccc(C(F)(F)F)cc2)nc1-c1nn[nH]c1C#N
HbA1c change from baseline (ZDF rat; 1 mg/kg/day, 6 weeks): 3.33 ± 0.13%

COc1ccc2c(c1)CN(C(=O)CCN1CCC(Cc3ccccc3)CC1)CC[S+]2[O-] (centres unmarked)
atrial flutter conversion (dog; dose not given; reference: animals): 80%

Fc1cccc(COc2ccc(Nc3ncnc4ccc(-c5cccc(-n6cccn6)c5)cc34)cc2Cl)c1
EC50 (Trypanosoma brucei; parasite growth): 7500 nM

COc1ccc(Nc2nc(Nc3ccc(OCC[18F])cc3)ncc2Br)cc1
tissue uptake (S180 tumour-bearing mice, bone; intravenous, 60 min): 4.16 ± 0.46 %ID/g

O=C1c2ccc3c4ccc5c6c(ccc(c7ccc(c2c37)C(=O)N1CCN1CCCCC1)c64)C(=O)N(CCN1CCCCC1)C5=O
effective concentration (LNCaP; telomere shortening; long-term treatment): 1 µM

CN(C)S(=O)(=O)c1ccccc1-c1ccc2ncnc(Nc3ccc(OCc4cccc(F)c4)c(Cl)c3)c2c1
EC50 (Trypanosoma brucei; parasite growth): 1000 nM

c1ccc2c(c1)CCCNC2c1c[nH]c2ncccc12 (centres unmarked)
IC50 (COLO 205; cytotoxicity): 79600 nM and 50000 to 80000 nM

CC(C)C(=O)N1CCC(c2ccc(NC(=O)N3Cc4ccncc4C3)cc2)CC1
EC50 (PC-3): 2 nM

c1cnc2[nH]cc(C3NCCc4sccc43)c2c1 (centres unmarked)
relative fluorescence index (Staphylococcus aureus; efflux pump inhibition; ATCC 25923; 50 µM; reference: untreated cells): -0.1

Cc1cc(-c2ccc3ncnc(Nc4ccc(OCc5cccc(F)c5)c(Cl)c4)c3c2)cnc1N1CCOCC1
EC50 (Trypanosoma brucei; parasite growth): 1000 nM

COc1cc2c(cc1OC)C(c1c[nH]c3ccccc13)NCC2 (centres unmarked)
relative fluorescence index (Escherichia coli; efflux pump inhibition; AG100 AcrAB-TolC expressing; 50 µM; reference: untreated cells): 0.33

CC[C@H](C)[C@H](NC(=O)[C@H](CC(C)C)NC(=O)[C@H](Cc1c[nH]cn1)NC(=O)[C@H](Cc1c[nH]cn1)NC(=O)[C@H](CC(C)C)NC(=O)[C@H](Cc1c[nH]c2ccccc12)NC(=O)[C@H](Cc1ccccc1)NC(=O)[C@H](CCCNC(=N)N)NC(=O)[C@H](CCCNC(=N)N)NC(=O)[C@H](CCCNC(=N)N)NC(=O)[C@H](CC(C)C)NC(=O)[C@H](CC(=O)O)NC(=O)[C@H](CCC(N)=O)NC(=O)[C@@H](NC(=O)[C@H](CO)NC(=O)[C@H](CCCCN)NC(=O)[C@@H](Cc1c[nH]c2ccccc12)NC(=O)[C@H](CC(C)C)NC(=O)[C@H](CC(=O)O)NC(=O)[C@H](Cc1c[nH]cn1)NC(=O)[C@H](CC(C)C)NC(=O)[C@@H](N)CC(C)C)[C@@H](C)CC)C(=O)N[C@@H](C)C(=O)N[C@@H](CCC(=O)O)C(=O)N[C@H](C(=O)N[C@@H](Cc1c[nH]cn1)C(=O)N[C@H](C(=O)N[C@@H](C)C(=O)N[C@@H](CCC(=O)O)C(=O)N[C@@H](Cc1ccc(O)cc1)C(N)=O)[C@@H](C)O)[C@@H](C)CC
trabecular bone mass (mouse; 500 nmol/kg twice daily, 14 days): decreased

c1ccc2c(C3NCCc4sccc43)c[nH]c2c1 (centres unmarked)
IC50 (MRC-5 fibroblasts; cytotoxicity): > 100000 nM

CN1CCN(S(=O)(=O)c2cccc(-c3ccc4ncnc(Nc5ccc(OCc6cccc(F)c6)c(Cl)c5)c4c3)c2)CC1
EC50 (Trypanosoma brucei; parasite growth): 3300 nM

CS(=O)(=O)Nc1ccc(-c2cncc(-c3cccc4cc[nH]c34)c2)cc1
remaining activity (PI5P4Kγ; 1 µM): 0%

N#Cc1ccnc(N2C(=O)CC[C@H]2C(=O)N(c2cncc(F)c2)[C@H](C(=O)NC2CC(F)(F)C2)c2ccccc2Cl)c1
complete response rate (relapsed/refractory mIDH1 AML patients; dose not given, trial, interim): 22%

c1ccc2c(c1)CCNC2c1c[nH]c2cccnc12 (centres unmarked)
relative fluorescence index (Escherichia coli; efflux pump inhibition; AG100A AcrAB-TolC deleted; 50 µM; reference: untreated cells): 0.66

CS(=O)(=O)c1ccc(-c2ccc3ncnc(Nc4ccc(OCc5cccc(F)c5)c(Cl)c4)c3c2)cc1
EC50 (Trypanosoma brucei; parasite growth): 900 nM

CCOC(=O)[C@H]1c2ccc3ccccc3c2O[C@@H]2c3ccccc3CCN21
relative fluorescence index (Staphylococcus aureus; efflux pump inhibition; ATCC 25923; 100 µM; reference: untreated cells): 0.55

CC(C)(C)OC(=O)N1CCN(S(=O)(=O)c2ccc(-c3ccc4ncnc(Nc5ccc(OCc6cccc(F)c6)c(Cl)c5)c4c3)cc2)CC1
EC50 (Trypanosoma brucei; parasite growth): 960 nM

A few entries again:
COc1ccc2c(c1)CN(C(=O)CCN1CCC(Cc3ccccc3)CC1)CC[S+]2[O-] (centres unmarked)
atrial flutter conversion (dog; dose not given; reference: animals): 80%

Fc1cccc(COc2ccc(Nc3ncnc4ccc(-c5cccc(-n6cccn6)c5)cc34)cc2Cl)c1
EC50 (Trypanosoma brucei; parasite growth): 7500 nM

COc1ccc(Nc2nc(Nc3ccc(OCC[18F])cc3)ncc2Br)cc1
tissue uptake (S180 tumour-bearing mice, bone; intravenous, 60 min): 4.16 ± 0.46 %ID/g
